Assay results pooled from the literature.
TDP1: Tyrosyl-DNA phosphodiesterase 1 (TDP1, Homo sapiens, UniProt Q9NUW8)
UniProt Q9NUW8, sequence (whole entry, looked up): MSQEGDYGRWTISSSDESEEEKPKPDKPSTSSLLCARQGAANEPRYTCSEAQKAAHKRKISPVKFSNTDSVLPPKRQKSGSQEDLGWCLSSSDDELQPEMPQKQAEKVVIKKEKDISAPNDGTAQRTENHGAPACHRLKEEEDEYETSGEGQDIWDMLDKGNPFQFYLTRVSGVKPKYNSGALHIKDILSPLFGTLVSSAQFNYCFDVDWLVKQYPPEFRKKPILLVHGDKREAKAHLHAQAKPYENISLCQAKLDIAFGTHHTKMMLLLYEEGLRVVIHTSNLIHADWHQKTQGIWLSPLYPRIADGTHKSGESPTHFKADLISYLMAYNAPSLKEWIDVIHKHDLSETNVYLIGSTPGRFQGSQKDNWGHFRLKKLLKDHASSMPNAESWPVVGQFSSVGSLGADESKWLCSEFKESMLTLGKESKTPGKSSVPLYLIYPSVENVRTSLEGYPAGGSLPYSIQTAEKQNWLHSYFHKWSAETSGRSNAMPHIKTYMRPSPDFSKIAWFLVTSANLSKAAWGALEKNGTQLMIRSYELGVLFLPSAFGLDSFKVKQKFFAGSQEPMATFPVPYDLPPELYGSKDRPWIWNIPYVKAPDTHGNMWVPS

CCCCCCCCCCCC[N+](C)(C)CCCCCCOc1cc(OCCCCCC[N+](C)(C)CCCCCCCCCCCC)cc(OCCCCCC[N+](C)(C)CCCCCCCCCCCC)c1.[Br-].[Br-].[Br-]
MIC (Enterococcus faecalis; OG1RF): 16 µM

O=C(O)c1ccc(Nc2c(-c3ccccc3)nc3ccc(CON=Cc4cccc5cccc(C(=O)O)c45)cn23)cc1 (mixture of isomers)
inhibition (TDP1; enzyme activity, inhibitor; 100 µM, unpurified compound): -8.2%

CC1C=CC=CC(C)C2C=CC3CC(C)(O)C(Cl)C(C)C3C2C(=O)C(Cl)(Cl)C(=O)C(C)C(=O)O1 (centres unmarked)
MIC (Staphylococcus aureus; MSSA clinical isolate; PEN SXT TET resistant): 0.05 µg/mL

CC[C@H](C)[C@@H]1NC(=O)[C@@H]([C@@H](C)O)NC(=O)CNC(=O)[C@H](CC(=O)O)NC(=O)CNC(=O)[C@H](CC(=O)O)NC(=O)CNC(=O)[C@H]2CCCCN2C(=O)[C@@H](NC(=O)[C@H](CC(=O)O)NC(=O)/C=C/CCCCCCCCCC(C)C)CNC(=O)[C@@H]2CCCN2C1=O
MIC (Staphylococcus aureus; broth microdilution; MRSA USA300, Mueller-Hinton broth, Mg2+ 10 mg/L; 16 h, 37 °C, together with: Ca2+ 1.0 mM): 8 µg/mL

C[C@@H]1C(=O)O[C@@H](C)/C=C/C=C\[C@@H](C)[C@@H]2C=C[C@@H]3C[C@@]4(C)O[C@H]4[C@@H](C)[C@H]3[C@@H]2C(=O)C(Cl)(Cl)C1=O
MIC (Staphylococcus aureus; MRSA clinical isolate; resistant OXA/CIP/CLI/ERY): 0.05 µg/mL

CCCCCCCCCCCC[N+](C)(C)CCCCCCCCCCOc1cc(OCCCCCCCCCC[N+](C)(C)CCCCCCCCCCCC)cc(OCCCCCCCCCC[N+](C)(C)CCCCCCCCCCCC)c1.[Br-].[Br-].[Br-]
MIC (Enterococcus faecalis; OG1RF): 250 µM

CN[C@H](CC(C)C)C(=O)N[C@H]1C(=O)N[C@@H](CC(N)=O)C(=O)N[C@H]2C(=O)N[C@H]3C(=O)N[C@H](C(=O)N[C@H](C(=O)O)c4cc(O)cc(O)c4-c4cc3ccc4O)[C@H](O)c3ccc(c(Cl)c3)Oc3cc2cc(c3O[C@@H]2O[C@H](CO)[C@@H](O)[C@H](O)[C@H]2O[C@H]2C[C@](C)(N)[C@H](O)[C@H](C)O2)Oc2ccc(cc2Cl)[C@H]1O
MIC (Virgibacillus; broth microdilution; DSM 28587; 24 h, aerobic, 30 °C, BHI medium): 0.25 µg/mL

COc1cc(C=NOCc2ccc3nc(-c4ccccc4)c(Nc4ccc(C(=O)O)cc4)n3c2)cc(I)c1OC
inhibition (TDP1; enzyme activity, inhibitor; 100 µM, unpurified compound): 33.7%

COc1ccc(NC(=O)COc2cccc(OCC(C)C)c2)cc1
MIC (Pichia kudriavzevii; microbial growth, broth dilution; ATCC6258): > 128 µg/mL

Oc1c(Br)cc(Br)c2nc3c(C(F)(F)F)cc(C(F)(F)F)cc3nc12
MIC (Staphylococcus aureus; 129 MRSA clinical isolate): 0.1 µM

CCCCCCCCCCCC[N+](C)(C)CCCCCCCCOc1cc(OCCCCCCCC[N+](C)(C)CCCCCCCCCCCC)cc(OCCCCCCCC[N+](C)(C)CCCCCCCCCCCC)c1.[Br-].[Br-].[Br-]
MIC (Enterococcus faecalis; OG1RF): 32 µM

Repeated from above:
COc1cc(C=NOCc2ccc3nc(-c4ccccc4)c(Nc4ccc(C(=O)O)cc4)n3c2)cc(I)c1OC
inhibition (TDP1; enzyme activity, inhibitor; 100 µM, unpurified compound): 33.7%
